Measurements collected from several papers.
Several values in a cell are separate wells, animals, samples, runs or records. ± gives the spread as reported.
Voltage-dependent P/Q-type calcium channel subunit alpha-1A: Voltage-dependent P/Q-type calcium channel subunit alpha-1A (Homo sapiens, UniProt O00555)
Rab GDP dissociation inhibitor beta with Rab1A: Rab GDP dissociation inhibitor beta, with Rab1A (Homo sapiens, UniProt P50395)
UCHL1: Ubiquitin carboxyl-terminal hydrolase isozyme L1 (UCHL1, Homo sapiens, UniProt P09936)

With COc1ccc2c3c1O[C@H]1C[C@@H](O)C=C[C@@]31CCN(C)C2 the inhibition was -13% (Voltage-dependent P/Q-type calcium channel subunit alpha-1A; ion current, antagonist; HEK293; 3 µM).
With CC[C@@H]1[C@H](F)C(=O)N[C@@H]1COc1nccc2cc(C(N)=O)c(OC)cc12 the inhibition was -18.6% (Protein-tyrosine kinase 2-beta (PTK2B, Homo sapiens, UniProt Q14289); ATP probe binding, KiNativ profiling, refers to: activation loop probe site; THP-1 cell lysate; 0.2 mM).
O=C(Nc1cccc2c(=O)cc(-c3nnn[nH]3)oc12)c1ccc(OCCCCc2ccccc2)cc1 gave an inhibition of 8.76% and 63.2% and -3.63% and 10.8% and 4.51% and 18.8% (LRRC8A/LRRC8C (Homo sapiens, UniProt Q8IWT6+Q8TDW0, Y124F/Y126F); ion current, whole-cell patch clamp; HCT LRRC8-/- cells; 3 µM, +100 mV, Y124F/Y126F heteromers).
With Cc1cc(C)cc(COc2cc3c(cc2OCc2cc(C)cc(C)c2)[C@H]2C[C@](O)(Cc4cn(-c5ccccc5)nn4)C[C@H](C)N2CC3)c1 the inhibition was 93.9% (Rab GDP dissociation inhibitor beta with Rab1A; GDI2-Rab1A interaction, NanoLuc complementation; 6.25 µM).
Cn1cc(-c2cnc3ccc(NC(=O)Nc4ccc(F)c(Br)c4)cc3n2)cn1 has an inhibition of 4.3% (Mitogen-activated protein kinase kinase kinase 4 (MAP3K4, Homo sapiens, UniProt Q9Y6R4); kinase binding, KiNativ profiling, refers to: Lys2 peptide; PANC-1 lysate; 2.5 µM).
The inhibition of CCC(=O)NC[C@@H]1C[C@H]1c1cccc2c1CCO2 is reported as 1% (Voltage-dependent P/Q-type calcium channel subunit alpha-1A; ion current, antagonist; HEK293; 30 µM).
For N#CC(=Cc1ccccc1[N+](=O)[O-])C(=O)Nc1ccc2c(c1)OCCO2, the labelling was 17.4% (UCHL1; covalent, intact protein LC-MS; 12.5 µM).
[2H]c1cc(C)c(NC(=O)c2cnc(Nc3cc(N4CCCCC4)nc(C)n3)s2)c(Cl)c1 gave an inhibition of > 50% (Platelet-derived growth factor receptor beta (PDGFRB, Homo sapiens, UniProt P09619); 0.001 µM).
The inhibition of OO is reported as 15 ± 4% (Histone acetyltransferase RTT109, with Vps75 (Saccharomyces cerevisiae, UniProt Q07794); enzyme activity, inhibitor; 250 µM, Rtt109-Vps75 complex, no DTT, added: [3H]acetyl-CoA).
COc1cc2c(cc1OC)C(=O)C(CC1CCN(Cc3ccccc3)CC1)C2 (stereo not drawn) gave an inhibition of 17% (Voltage-dependent P/Q-type calcium channel subunit alpha-1A; ion current, antagonist; HEK293; 10 µM).
O=C(NCCCNS(=O)(=O)c1ccc(OC(F)(F)F)cc1)C1=Cc2ccccc2S1(=O)=O — result for inhibition: “no inhibition” (Tyrosine-protein phosphatase non-receptor type 11 (PTPN11, Homo sapiens, UniProt Q06124); enzyme activity; 25 to 30 µM, phosphatase selectivity panel).
For Cc1cc(C(=O)CCl)c(C)n1-c1ccc2c(c1)OCO2, the labelling was 6.96% (UCHL1; covalent, intact protein LC-MS; 12.5 µM).
COc1ccc(F)cc1C(=O)NCc1ccc(-c2nn([C@@H](C)C(F)(F)F)c(N)c2C(N)=O)cc1 gave an inhibition of -62.8% (Glycogen synthase kinase-3 beta (GSK3B, Homo sapiens, UniProt P49841); target engagement, competitive chemoproteomics; human PBMCs; 0.1 µM).
O=C1CC2(CCCC2)CC(=O)N1CCCCN1CCN(c2ncccn2)CC1 gave an inhibition of 10% (Voltage-dependent P/Q-type calcium channel subunit alpha-1A; ion current, antagonist; HEK293; 10 µM).
For CCCC(CCC)C(N)=O, the inhibition was 50% (Epoxide hydrolase 1 (EPHX1, Homo sapiens, UniProt P07099); enzyme activity; human liver microsomes; 10 µM, added: styrene oxide 50 µM).
Nc1nc2ccc(OC(F)(F)F)cc2s1 gave an inhibition of 0% (Voltage-dependent P/Q-type calcium channel subunit alpha-1A; ion current, antagonist; HEK293; 3 µM).
Cc1cc(-c2ccnc3[nH]cc(F)c23)cc(F)c1[C@@]1(O)[C@H](C)CN(C(=O)CN)C[C@@H]1C gave an inhibition of 38% (Serine/threonine-protein kinase 38-like (STK38L, Homo sapiens, UniProt Q9Y2H1); ATP probe binding, KiNativ, refers to: Lys2 site; HEK293T cell lysate; 10 µM).
With C/C=C/C(=O)Nc1ccc(CCn2cc(C[C@@]3(O)C[C@@H]4c5cc(OCc6cc(C)cc(C)c6)c(OCc6cc(C)cc(C)c6)cc5CCN4[C@@H](C)C3)nn2)cc1 the inhibition was 96.2% (Rab GDP dissociation inhibitor beta with Rab1A; GDI2-Rab1A interaction, NanoLuc complementation; 6.25 µM).

Some of these lines once more:
With CC[C@@H]1[C@H](F)C(=O)N[C@@H]1COc1nccc2cc(C(N)=O)c(OC)cc12 the inhibition was -18.6% (Protein-tyrosine kinase 2-beta (PTK2B, Homo sapiens, UniProt Q14289); ATP probe binding, KiNativ profiling, refers to: activation loop probe site; THP-1 cell lysate; 0.2 mM).
O=C(Nc1cccc2c(=O)cc(-c3nnn[nH]3)oc12)c1ccc(OCCCCc2ccccc2)cc1 gave an inhibition of 8.76% and 63.2% and -3.63% and 10.8% and 4.51% and 18.8% (LRRC8A/LRRC8C (Homo sapiens, UniProt Q8IWT6+Q8TDW0, Y124F/Y126F); ion current, whole-cell patch clamp; HCT LRRC8-/- cells; 3 µM, +100 mV, Y124F/Y126F heteromers).
With Cc1cc(C)cc(COc2cc3c(cc2OCc2cc(C)cc(C)c2)[C@H]2C[C@](O)(Cc4cn(-c5ccccc5)nn4)C[C@H](C)N2CC3)c1 the inhibition was 93.9% (Rab GDP dissociation inhibitor beta with Rab1A; GDI2-Rab1A interaction, NanoLuc complementation; 6.25 µM).
